Results of several laboratories.
Every numbered part comes from another study and shows a few of its results, in no order. Changes are numbered by the printed parent chain.

Block 1 — technique: Spec-seq; form: double-stranded DNA, one strand shown; sample: in vitro; tested at: not given; setting: whole probe, mean of replicates; baseline: not given; direction: lower = stronger binding
Target: POU, POU domain (Salpingoeca helianthica)
All sequences stand within: GAGTCGTCTCGTCAGCAC … ATCCGTAGAGCACTCAGGTC
Target sequence (chain): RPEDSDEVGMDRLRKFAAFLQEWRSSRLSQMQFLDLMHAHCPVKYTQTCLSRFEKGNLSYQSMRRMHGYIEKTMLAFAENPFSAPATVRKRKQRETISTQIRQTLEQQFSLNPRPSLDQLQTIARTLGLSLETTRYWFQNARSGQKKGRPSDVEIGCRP
Oligonucleotide | relative binding energy
ATTTTT | 0.401 ln ratio
GACGTA | 0.461 ln ratio
ATGATC | 1.31 ln ratio
TGACTA | 0.553 ln ratio
ATGGTC | 1.11 ln ratio

Block 2 — technique: RNA Bind-n-Seq; form: RNA; sample: in vitro; tested at: 365 nM; baseline: no-protein control; direction: higher = stronger binding
Target: RNA binding protein fox-1 homolog 2, RRM domain, GST-SBP tag (RBFOX2, Homo sapiens, UniProt O43251-10, residues 100-194)
Setting: natural RNA segment, single round, ends assumed
Oligonucleotide | RBNS enrichment (R)
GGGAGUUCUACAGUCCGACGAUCAAAUAAAAUCUAUUCUCUUAGAAGUACAGAUCAUUUUGAAACUUAAUGUGAUAUUUGUUGACAUUUUCCUGGCUAAUAUUUAAAAUUCAUUGGAAAAGAUUUUCAAAAUUUGGAAUUCUCGGGUGCCAA | 0.467
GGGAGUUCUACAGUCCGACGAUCUAGAAAAUUUGUUAUUUUGCAACCUCGCUGGACUCUCAGUCUCUGAGCAGUGAAUGAUUCAGUGUUAAAUGUGAUGAAUACUGUAUUUUGUAUUGUUUCAAUUGCAUCUCUGGAAUUCUCGGGUGCCAA | 0.9
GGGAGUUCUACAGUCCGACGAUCAACUACCAUAAAGUUAUAUCCACAUGUAAUUUUUUUGAGGAGAUCGAUAAGAGUAGUAGGCACCACAUGUAAGUCAGGGUCAAAUACUUGGAUAUUUAUCUGCAUAUGCAUGGAAUUCUCGGGUGCCAA | 0.445
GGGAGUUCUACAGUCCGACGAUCCCCUGUCAUGCUCAUCAGCUUAUGGCUUCUGUCUAAGCACCUGAACAGAGGACUGAAACCUCCACUGCAGGCUGGUUUUAGGUCUUGAAUUAUGUAAGAAUCUUGCACAGUGGAAUUCUCGGGUGCCAA | 0.416
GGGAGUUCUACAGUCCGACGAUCCCAGUGGGAAGAGAACCGUUCCAUCCUCUGGUGUUAACGCCUUAAUGUCCCCAGUAUUUACUAUGAGUUGCUUCAGGUCAUUUUUUGAUUUUUUGUUUUUUCUUUUGGAAUGGAAUUCUCGGGUGCCAA | 0.745

Block 3 — target: CCNB1, cyclin fold, Cln2 fusion (human); technique: yeast growth competition, sequencing; sample: yeast; setting: strong parent motif; baseline: not given; direction: higher = stronger binding
Parent: MASTL docking peptide (human); PMIAKNLMCELDE; partner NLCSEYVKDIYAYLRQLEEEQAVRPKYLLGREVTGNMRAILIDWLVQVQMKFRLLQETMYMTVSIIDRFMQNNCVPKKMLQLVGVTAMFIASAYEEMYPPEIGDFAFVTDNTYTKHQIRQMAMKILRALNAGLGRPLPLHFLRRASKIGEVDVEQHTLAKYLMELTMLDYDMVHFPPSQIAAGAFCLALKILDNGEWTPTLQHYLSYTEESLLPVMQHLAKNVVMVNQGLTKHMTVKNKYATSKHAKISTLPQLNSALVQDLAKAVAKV
Variant | normalised enrichment score
E10H | 0.4
I3M | 0.148
L11T | -0.28
E10C | 0.822
N6G | -0.0529

Other studies, line by line
Molecule | target | test | test system | conditions | how to read | quantity | value
PhoQ, residues 284 288 289 292 302 303 TGYLSA | PhoP, residues 12 14 15 18 19 FWNTL (Escherichia coli, UniProt P23836) | Sort-seq, measured: YFP reporter | E. coli | PhoQ-PhoP variant library, with: 10 µM Mg2+ | baseline: high Mg2+ state, higher = stronger signaling | fold induction | 8.9
